Measurements collected from several papers.
Lines come from different studies, so protocols differ.

SMILES = Cc1c(Cl)c(C)[n+]([O-])c(Cl)c1-c1noc(-c2cc(O)c(O)c([N+](=O)[O-])c2)n1; assay = item: Bloating; system = healthy Chinese subjects; conditions = oral, 25 mg, 4 days; endpoint = adverse drug reaction incidence; result = 6.7%
SMILES = Cc1cc(Nc2ccc(S(F)(F)(F)(F)F)cc2)n2nc(C(C)(F)F)nc2n1; system = Plasmodium falciparum malaria patients; conditions = oral, 250 mg; endpoint = adverse event Pyrexia; result = 27.3%
SMILES = O=C1CCc2ccc(OCCCCN3CCN(c4cccc(Cl)c4Cl)CC3)cc2N1; assay = item: Hypotension; system = patients, CYP2D6 intermediate metabolizers; conditions = dose not given, long-acting oral or depot; endpoint = adverse event incidence; result = 1.8%
SMILES = CC(=O)O[C@H]1C(=O)[C@@]2(C)[C@H]([C@H](OC(=O)c3ccccc3)[C@]3(O)C[C@H](OC(=O)[C@H](O)[C@@H](NC(=O)c4ccccc4)c4ccccc4)C(C)=C1C3(C)C)[C@]1(OC(C)=O)CO[C@@H]1C[C@@H]2O; assay = item: aspartate aminotransferase increased; system = patients with advanced solid tumours; conditions = intravenous, dose not given, phase Ib, related to compound; endpoint = adverse events, all grades; result = 35%
SMILES = NCCONC(=O)[C@@H]1CC[C@@H]2CN1C(=O)N2OS(=O)(=O)O; assay = item: leading to temporary interruption; system = healthy Chinese men; conditions = intravenous, 2 g, treatment-emergent; endpoint = adverse event incidence; result = 0%
SMILES = FC(F)(F)c1ccc(CNc2ccc(Cc3c[nH]c4ncc(Cl)cc34)cn2)cn1; assay = item: Anaemia; system = patients with advanced solid tumours; conditions = oral, dose not given, grade 3 and 4, possibly related to drug; endpoint = adverse event incidence; result = 15%
SMILES = Cc1ccc(Sc2ccccc2N2CCNCC2)c(C)c1; assay = TEAE dysphoria; system = healthy adult men; conditions = oral, 10 mg single dose, 8 nights, overall; endpoint = adverse event incidence; result = 5%
SMILES = CNC(=O)c1ccc(-c2cnc3ncc(Cc4ccc5ncccc5c4)n3n2)cc1F; assay = phase 1 clinical trial, item: upper abdominal pain; system = other expansion cohort; conditions = oral, 600 mg twice daily, grade 3 or 4; endpoint = adverse event incidence; result = 0%
SMILES = Cc1c(C(=O)O)ccc2c3n(nc12)[C@@H]1[C@H](C3)N(CC2CC2)[C@@]2(C(=O)Nc3cc(Cl)ccc32)[C@H]1c1cccc(Cl)c1F; assay = phase Ia trial, item: Anemia; system = cancer patients; conditions = oral, dose not given, all patients all grades; endpoint = adverse event incidence; result = 46.3%

A few entries again:
SMILES = Cc1c(Cl)c(C)[n+]([O-])c(Cl)c1-c1noc(-c2cc(O)c(O)c([N+](=O)[O-])c2)n1; assay = item: Bloating; system = healthy Chinese subjects; conditions = oral, 25 mg, 4 days; endpoint = adverse drug reaction incidence; result = 6.7%
